Earlier results that unrelated publications cite.
Lines come from different studies, so protocols differ.

Cn1c(C2(NC(=O)c3ccc4c(C5CCCC5)c(-c5ncc(Br)cn5)n(C)c4c3)CCC2)nc2ccc(/C=C/C(=O)O)cc21 — IC50 (HCV NS5B; biochemical): 19 nM
CC1(C)CCC(CN2CCN(c3ccc(C(=O)NS(=O)(=O)c4ccc(NCC5CCOCC5)c([N+](=O)[O-])c4)c(Oc4cnc5[nH]ccc5c4)c3)CC2)=C(c2ccc(Cl)cc2)C1 — apparent peripheral volume (V3/F) (legacy population PK model; human; dose not given): 119 L
CNC(=O)c1ccc(Nc2ncc(C(F)(F)F)c(NCc3nccnc3N(C)S(C)(=O)=O)n2)cc1 — IC50 (MAP3K9; kinase activity): 75.3 nM
CNCc1cn(S(=O)(=O)c2cccc(F)c2)c(-c2ccc(F)cc2F)c1OC — IC50 (CYP2C19; enzyme activity, inhibitor): 44700 nM
COc1nc2ccc([C@@](O)(c3ccccc3)C3CCN(C(C)=O)CC3)cc2c(Cl)c1Cc1ccc(-n2cccn2)cc1 — IC50 (RORC (human); cellular activity): 30 nM
Oc1ccc(/C=C/c2cc(O)cc(O)c2)cc1 — activity class (Toxoplasma gondii; parasite growth; concentration not given, drug repurposing screen): inactive
c1ccc(C2CCN(c3cnc4c(N5CCOCC5)nccn34)CC2)cc1 — IC50 (PDE10A (human); enzyme activity): > 10000 nM
CNC(=O)c1c(C)oc2cc(Oc3ncnc4cc(OC)c(OC)cc34)ccc12 — dose recovered (urine; 5 mg radiolabelled, time not given): ~60%

Repeated from above:
CNC(=O)c1c(C)oc2cc(Oc3ncnc4cc(OC)c(OC)cc34)ccc12 — dose recovered (urine; 5 mg radiolabelled, time not given): ~60%
